Assay results gathered from unrelated publications.
Lines come from different studies, so protocols differ. Several values in a cell are separate wells, animals, samples, runs or records. pEC50: −log10 of the molar value. ≈ marks a conversion by molar mass, not a printed value.
Organism: Bacillus subtilis

| SMILES | test | test system | setting | measurement | value |
| --- | --- | --- | --- | --- | --- |
| O=C(O)c1cn(C2CC2)c2cc(N3CCNCC3)c(F)cc2c1=O | bacterial cytological profiling | ATCC 6633 | concentration not given | cell width | 0.87 µm and 0.95 µm and 0.93 µm |
| N[C@@H](CS)C(=O)O | chemotaxis pathway, FRET | 168 | – | pEC50 | 6.82 |
| CC(=O)C1=NN(c2ccc([N+](=O)[O-])cc2)C(=C(C#N)C(=O)c2ccc(Nc3cnccn3)cc2)S1 | broth microdilution | ATCC 35021 | – | MIC | 3.12 µg/mL |
| CC1CCC(C(C)C)C(OC2=C(Cl)C(=O)c3ccccc3C2=O)C1 (centres unmarked) | broth microdilution | MTCC 1427 | – | MIC | 12 µg/mL |
| CO[C@H]1/C=C/O[C@@]2(C)Oc3c(C)c(O)c4c(O)c(c(/C=N/N5CCN(C)CC5)c(O)c4c3C2=O)NC(=O)/C(C)=C\C=C\[C@H](C)[C@H](O)[C@@H](C)[C@@H](O)[C@@H](C)[C@H](OC(C)=O)[C@@H]1C | bacterial cytological profiling | ATCC 6633 | – | DNA width | 0.71 µm and 0.73 µm and 0.78 µm |
| N[C@@H](CC(=O)O)C(=O)O | chemotaxis pathway, FRET | – | 168 | pEC50 | < 3.00 |
| CCCCCCCNC1=C(n2cncn2)C(=O)c2ccccc2C1=O | – | MTCC 1427 | 10 µg/mL | zone of inhibition | 8 mm |
| O=C(O)[C@@H]1CCCN1 | chemotaxis pathway | – | – | pEC50 | 6.49 |
| COc1cc(C=O)ccc1OC1=C(Cl)C(=O)c2ccccc2C1=O | – | MTCC 1427 | 10 µg/mL | zone of inhibition | 15 mm |
| CC(C)[C@H](N)C(=O)O | chemotaxis pathway, FRET | 168 | – | pEC50 | 5.66 |
| CC[C@H](C)CCCCC(=O)N[C@@H](CCN)C(=O)N[C@H](C(=O)N[C@@H](CCN)C(=O)N[C@H]1CCNC(=O)[C@H]([C@@H](C)O)NC(=O)[C@H](CCN)NC(=O)[C@H](CCN)NC(=O)[C@H](CC(C)C)NC(=O)[C@@H](CC(C)C)NC(=O)[C@H](CCN)NC1=O)[C@@H](C)O | broth microdilution | 168, cation-adjusted Mueller-Hinton broth | – | MIC | 7 µM |
| CC1(C)S[C@@H]2[C@H](NC(=O)[C@H](N)c3ccccc3)C(=O)N2[C@H]1C(=O)O | bacterial cytological profiling | ATCC 6633 | concentration not given | cell length | 3.89 µm and 4.07 µm and 3.87 µm |
| O=C1C(Cl)=C(n2cncn2)C(=O)c2ccccc21 | – | MTCC 1427 | 10 µg/mL | zone of inhibition | 14 mm |
| N[C@@H](Cc1c[nH]cn1)C(=O)O | chemotaxis pathway, FRET | 168 | – | pEC50 | 3.98 |
| CN(C)[C@@H]1C(O)=C(C(N)=O)C(=O)[C@@]2(O)C(O)=C3C(=O)c4c(O)cccc4[C@@](C)(O)[C@H]3C[C@@H]12 | bacterial cytological profiling | ATCC 6633 | concentration not given | cell perimeter | 6.43 µm and 6 µm and 6.22 µm |
| Cc1ccc(C(C)C)c(OC2=C(Cl)C(=O)c3ccccc3C2=O)c1 | broth microdilution | MTCC 1427 | – | MIC | 12 µg/mL |
| COc1cccc2c1C(=O)c1c(O)c3c(c(O)c1C2=O)C[C@@](O)(C(=O)CO)C[C@@H]3O[C@H]1C[C@H](N)[C@H](O)[C@H](C)O1 | bacterial cytological profiling | ATCC 6633 | – | DNA width | 0.63 µm and 0.6 µm and 0.66 µm |
| COc1ccc(N2N=C(C(=O)c3ccc(Nc4cnccn4)cc3)SC2=C(C#N)C#N)cc1 | broth microdilution | ATCC 35021 | – | MIC | 3.12 µg/mL |
| CC(C)C[C@H](N)C(=O)O | chemotaxis pathway, FRET | 168 | – | pEC50 | 5.74 |
| CN[C@H](CC(C)C)C(=O)N[C@H]1C(=O)N[C@@H](CC(N)=O)C(=O)N[C@H]2C(=O)N[C@H]3C(=O)N[C@H](C(=O)N[C@H](C(=O)O)c4cc(O)cc(O)c4-c4cc3ccc4O)[C@H](O)c3ccc(c(Cl)c3)Oc3cc2cc(c3O[C@@H]2O[C@H](CO)[C@@H](O)[C@H](O)[C@H]2O[C@H]2C[C@](C)(N)[C@H](O)[C@H](C)O2)Oc2ccc(cc2Cl)[C@H]1O | broth microdilution | 168, cation-adjusted Mueller-Hinton broth | – | MIC | 0.168 µM |
| N[C@@H](CO)C(=O)O | chemotaxis pathway, FRET | 168 | – | pEC50 | 5.59 |
| N=c1sc(C(=O)c2ccc(Nc3cnccn3)cc2)nn1-c1ccccc1 | broth microdilution | ATCC 35021 | – | MIC | 50 µg/mL |
| CC1(C)S[C@@H]2[C@H](NC(=O)[C@H](N)c3ccc(O)cc3)C(=O)N2[C@H]1C(=O)O | broth microdilution | MTCC 1427 | – | MIC | 10 µg/mL |
| N=c1sc(C(=O)c2ccc(Nc3cnccn3)cc2)nn1-c1ccc([N+](=O)[O-])cc1 | broth microdilution | ATCC 35021 | – | MIC | 6.25 µg/mL |
| CSCC[C@H](N)C(=O)O | chemotaxis pathway | – | – | pEC50 | 5.41 |
| COc1ccc(-n2nc(C(=O)c3ccc(Nc4cnccn4)cc3)sc2=N)cc1 | broth microdilution | ATCC 35021 | – | MIC | 12.5 µg/mL |
| NCCCC[C@H](NC(=O)[C@H](Cc1ccccc1)NC(=O)[C@H](CCC(N)=O)NC(=O)[C@H](Cc1ccccc1)NC(=O)[C@H](CCC(N)=O)NC(=O)[C@@H](N)Cc1ccccc1)C(N)=O | – | – | – | MBC | 520 µM (≈ 438 µg/mL) |
| CC1=N/C(=C\c2cc(F)c(O)c(F)c2)C(=O)N1C | cytoplasmic accumulation, flow cytometry | – | – | lowest detectable concentration | 100 nM |
| O=C(N[C@H](CO)[C@H](O)c1ccc([N+](=O)[O-])cc1)C(Cl)Cl | broth microdilution | ATCC 35021 | – | MIC | 6.25 µg/mL |
